Published values pooled from the literature.
Every numbered part comes from another study and shows a few of its results, in no order.

Sample 1
Target: RNA binding protein fox-1 homolog 2, RRM domain, GST-SBP tag (RBFOX2, Homo sapiens, UniProt O43251-10, residues 100-194)
Technique: RNA Bind-n-Seq
Form: RNA
Sample: in vitro
Tested at: 365 nM
Notes: natural RNA segment, single round, ends assumed
Reference: no-protein control
Direction: higher = stronger binding
Quantity: RBNS enrichment (R)
All sequences stand within: GGGAGUUCUACAGUCCGACGAUC … UGGAAUUCUCGGGUGCCAA
Construct (chain): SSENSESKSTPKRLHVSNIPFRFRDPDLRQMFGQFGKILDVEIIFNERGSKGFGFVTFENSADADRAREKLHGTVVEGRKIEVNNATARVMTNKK
Sequence = CUCUCAUCACUGCCCUUGGACUUCCGCCUUGACUGUCCAUGAAAGACAGAAAUGGGUUGGGUAGUUGGGCUCCCAACCUCGGAUGGUGACCGCAACAUCCCGUGUGGGCG; result = 0.8
Sequence = GGUUCUACCCUUUCUGCCUUCUGUUUGGGACCCAGCUGGUGUUCUUUGGUUUGCUUUCUUCAGGCUCUAGGGCUGUGCUAUCCAAUACAGUAACCACAUGCGGCUGUUUA; result = 0.29
Sequence = UGUAGCUUUUAUUUAUUCAGAACGCAUACGGCAUGUUAAUGACUCUGAUGGUGUCCUCCUCUGGGCAGCUGUAUAGGAUCAUCAUGUGGUUACAAAAAAUACUUCCCUCA; result = 1.43
Sequence = GUUGCAACUCCCAACCCCGAAUCUUUGCAGCCGUUCGGCCCUGAAAGAUGCCCUAUCCAUGAGAUGCCUUUUCAUCUGCAAACUCUGCAAAAUGUGUCUCAUGUUUCGCA; result = 0.602
Sequence = GGAGGGAGCUCUCAGGCUGCAGAGACAGUCAAGUAGAAGAGGAAGAGCUAAGGGGUGUGGAGUCCUGCUCCUCCAUUUGUCCUGAUCAUUUCAACACCUGGCCCUUGCUC; result = 0.683
Sequence = UAUUUUGGUUGUCUGUAGCGUUGGAAGCAUUUUAUAUGAUAAAAAUAGCAAGAAAAAAUUAAAAAGUGUCAACGGUGUGCUGGUUCUAAAUUAAGAAGAUAGAACAAAGA; result = 1.24
Sequence = GGGCUUUGCGCUUGUAAAUACUGAUAGCACUGGCUUCCUCCAAAGUCCCAACGUUCUAGCACCCCCCUCUUCUCCUUUCUCUGUCCCCCAUUUUCCAGGGGGUUUAUGGU; result = 0.312
Sequence = UCAGUUUUCCUCUGAUGUUUUUGAGGUACUGUGUAUUUGCAGAAGUUUAAGCAGAAGGGUUUUGUUUCUAUUGUAAGUUAGGUUCUAAAAGUGUAUAAUCUGAUACUCUA; result = 0.618

Sample 2
Target: Interferon regulatory factor 3, full length, phosphomimetic (IRF3, Homo sapiens, UniProt Q14653, residues 1-427, S386D/S396D/S398D/S402D/T404D/S405D)
UniProt Q14653, sequence (whole entry, unmodified, looked up): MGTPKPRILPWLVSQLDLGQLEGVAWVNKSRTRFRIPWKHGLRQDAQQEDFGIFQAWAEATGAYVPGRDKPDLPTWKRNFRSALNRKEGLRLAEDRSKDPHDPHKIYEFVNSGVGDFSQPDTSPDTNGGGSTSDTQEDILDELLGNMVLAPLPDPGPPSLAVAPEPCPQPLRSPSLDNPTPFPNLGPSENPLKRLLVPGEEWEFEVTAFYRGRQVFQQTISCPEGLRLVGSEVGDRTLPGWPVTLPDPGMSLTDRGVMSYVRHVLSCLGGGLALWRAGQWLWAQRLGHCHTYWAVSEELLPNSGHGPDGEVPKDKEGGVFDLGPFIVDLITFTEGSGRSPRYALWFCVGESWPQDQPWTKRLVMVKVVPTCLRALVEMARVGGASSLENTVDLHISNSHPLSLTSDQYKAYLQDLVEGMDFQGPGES
Technique: protein-binding microarray
Form: double-stranded DNA, one strand shown
Sample: in vitro
Tested at: 2540 nM top
Notes: 60-bp whole probe
With: salmon DNA 0.4 mg/ml
Reference: random background probes
Direction: higher = stronger binding
Quantity: fitted relative affinity
All sequences stand within: GCCTAGCAC … GTCTTGATTCGCTTGACGCTGCTG
Sequence = GGCGATCTCAGTATCGAGACGTGCTAG; result = 0.48 z-score
Sequence = GACGGTTTCGGGTTTAGGGACGTGCTA; result = 5.73 z-score
Sequence = TTAGGTATCGAGTATCGGTTAGTGCTA; result = 1.38 z-score
Sequence = TTAGGTCTCCTTTTGCTTTAGTGCTAG; result = 3.38 z-score
Sequence = TTTCTTTTCCATTTTGTGTTGTGCTAG; result = 5.65 z-score
Sequence = TCAACTCTCTACATGGGACTGTGCTAG; result = 0.328 z-score
Sequence = TTAGATCTCAGTATCAATTAGTGCTAG; result = 0.621 z-score
Sequence = TGTCTTTTCATTTTCTTTAAGTGCTAG; result = 2.59 z-score
Sequence = GACGATTCCGGTTTCGGGACGTGCTAG; result = 4.37 z-score
Sequence = TTAGGTTTCGGTATCGGTTGGTGCTAG; result = 8.34 z-score
Sequence = GACCAACTGGGGTATCGAGACGTGCTA; result = -0.236 z-score
Sequence = TTAGGACTGGACTTTCGGTGAGTGCTA; result = 0.131 z-score
Sequence = TTAGGACTGGTTATCGGTTAGTGCTAG; result = 0.2 z-score
Sequence = ATCTGCAGCTGACTACACACGTGCTAG; result = 0.0156 z-score
Sequence = TTAGGACTGGGTATCGTTTAGTGCTAG; result = 0.0911 z-score
Sequence = GACGGTTTCCTTTCCCTGAGGTGCTAG; result = 9.25 z-score
Sequence = TCAAGTCCCTATCTCCTACTGTGCTAG; result = 0.971 z-score
Sequence = TTAGCTTTCAGACTGGATTAGTGCTAG; result = 0.342 z-score
Sequence = GTCGATTTCGGGTATCGAGACGTGCTA; result = 2.84 z-score

Sample 3
Target: Histone acetyltransferase KAT6A, winged helix 1, GST fusion (KAT6A, Homo sapiens, UniProt Q92794, residues 1-85)
Technique: protein binding microarray
Form: double-stranded DNA, one strand shown
Sample: in vitro
Tested at: not given
Notes: 8-mer, flanks averaged, mean of 2 arrays, mostly near background
Reference: not given
Direction: higher = stronger binding
Quantity: E-score
Construct (chain): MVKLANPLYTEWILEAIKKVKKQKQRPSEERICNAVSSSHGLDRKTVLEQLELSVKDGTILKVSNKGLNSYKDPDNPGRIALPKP
Sequence = AAAACGAA; result = -0.175
Sequence = GCCGTTAC; result = 0.334
Sequence = GAGGTTAA; result = -0.102
Sequence = CCAGTAGG; result = -0.102
Sequence = TACGATCA; result = -0.0901
Sequence = GGTTGCGA; result = -0.0253
Sequence = AAACCTCT; result = -0.0367
Sequence = ACTGGCGC; result = 0.188
Sequence = ACTAGGCG; result = 0.229
Sequence = ACTCCCAC; result = -0.0454
Sequence = AGCACGGG; result = 0.222
Sequence = GGTTCCCA; result = -0.178
Sequence = ACCGTGCG; result = 0.315
Sequence = AGTAATGA; result = -0.184
Sequence = TCGTGACA; result = -0.165
Sequence = CGCCGGGA; result = 0.44
Sequence = AGTGATGG; result = -0.228
Sequence = ACCTACCA; result = -0.33
Sequence = CCAAGTGC; result = -0.0332
Sequence = AATACATA; result = 0.0114
Sequence = GCGCGCTA; result = 0.44
Sequence = ATAGCTTC; result = -0.164
Sequence = CAGTCGCA; result = 0.106
Sequence = AATAATGC; result = -0.0572
Sequence = ATGATCTC; result = -0.168

Sample 4
Target: Sal-like protein 4, full length isoform A (SALL4, Homo sapiens, UniProt Q9UJQ4, residues 1-1053)
UniProt Q9UJQ4, sequence (whole entry, looked up): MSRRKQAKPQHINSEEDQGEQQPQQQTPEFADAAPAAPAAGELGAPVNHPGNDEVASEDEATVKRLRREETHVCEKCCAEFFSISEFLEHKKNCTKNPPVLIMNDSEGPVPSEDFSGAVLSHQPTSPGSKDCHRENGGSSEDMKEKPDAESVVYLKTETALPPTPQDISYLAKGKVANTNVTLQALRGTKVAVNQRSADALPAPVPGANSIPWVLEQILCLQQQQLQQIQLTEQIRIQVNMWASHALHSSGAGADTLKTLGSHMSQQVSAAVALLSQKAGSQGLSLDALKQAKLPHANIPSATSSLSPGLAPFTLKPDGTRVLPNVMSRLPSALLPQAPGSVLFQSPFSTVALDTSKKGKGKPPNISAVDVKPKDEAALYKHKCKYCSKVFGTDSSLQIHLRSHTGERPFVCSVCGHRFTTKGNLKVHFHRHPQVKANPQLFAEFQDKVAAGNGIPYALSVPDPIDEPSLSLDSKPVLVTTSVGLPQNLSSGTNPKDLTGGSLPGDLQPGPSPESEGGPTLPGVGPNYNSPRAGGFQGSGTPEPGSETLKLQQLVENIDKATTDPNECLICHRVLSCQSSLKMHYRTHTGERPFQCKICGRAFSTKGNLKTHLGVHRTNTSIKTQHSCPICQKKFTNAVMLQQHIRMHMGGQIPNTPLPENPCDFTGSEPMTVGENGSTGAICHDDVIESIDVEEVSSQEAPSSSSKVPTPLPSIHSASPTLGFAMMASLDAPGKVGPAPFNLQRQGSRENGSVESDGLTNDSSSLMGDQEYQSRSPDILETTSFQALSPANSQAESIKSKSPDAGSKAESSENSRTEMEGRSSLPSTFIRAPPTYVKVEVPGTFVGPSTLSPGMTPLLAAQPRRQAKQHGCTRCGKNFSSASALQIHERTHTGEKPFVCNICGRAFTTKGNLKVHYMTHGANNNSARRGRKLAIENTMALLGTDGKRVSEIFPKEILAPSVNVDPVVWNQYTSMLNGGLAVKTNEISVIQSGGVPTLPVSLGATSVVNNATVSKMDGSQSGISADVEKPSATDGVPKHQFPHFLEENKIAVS
Technique: universal PBM
Form: double-stranded DNA, one strand shown
Sample: in vitro
Tested at: 600 nM
Notes: 8-mer, flanks averaged, mean of replicates
Direction: higher = stronger binding
Quantity: E-score
Sequence = AAACCATA; result = 0.286
Sequence = GGCCGGAA; result = -0.165
Sequence = AACTACTT; result = 0.123
Sequence = AGTAATAA; result = 0.4
Sequence = CTGTTTAC; result = 0.251
Sequence = CTACCGAG; result = -0.223
Sequence = CTCTGCAC; result = -0.144
Sequence = ATGTGTGG; result = -0.00458
Sequence = AGCTGTCC; result = -0.178
Sequence = ATTTGCTC; result = 0.158
Sequence = ATGGCCTC; result = -0.131
Sequence = CTGGGAGA; result = -0.202
Sequence = CAATAGCG; result = -0.167
Sequence = CGTTCTAG; result = -0.0887
Sequence = CAAACCGG; result = -0.162
Sequence = AGCTGCCA; result = -0.146
Sequence = GAATCGGC; result = -0.0774
Sequence = GATTCGCA; result = -0.0134
Sequence = GAACGTCA; result = 0.0514
Sequence = CACAACGA; result = 0.116
Sequence = GATAATAC; result = 0.257
Sequence = CCTAGCAA; result = 0.0275
